Experimental data from different studies.
Compare with care: the assays were run in different laboratories. Several values in a cell are separate wells, animals, samples, runs or records. ± gives the spread as reported. Values after ≈ are worked out from the molar mass of the structure shown.

Structure (SMILES)	assay	system	conditions	endpoint	result
CCCCCCCC(=O)N[C@@H](CCCCN)C(=O)N[C@@H](CCCCN)C(=O)N[C@@H](C)C(=O)N[C@@H](CC(C)C)C(=O)N[C@@H](CCCCN)C(=O)N[C@@H](CC(C)C)C(=O)N[C@@H](C)C(=O)N[C@@H](CCCCN)C(=O)N[C@@H](CCCCN)C(=O)N1CCC[C@H]1C(=O)N[C@@H](CC(C)C)C(=O)N[C@@H](CCCCN)C(=O)N[C@@H](CC(C)C)C(=O)N[C@@H](CC(C)C)C(=O)N[C@@H](CCCCN)C(N)=O	–	mouse ICR CD1 female, whole blood	intravenous bolus, 1 mg/kg	volume of distribution	1.31 ± 0.324 L/kg
O=C(O)CCCOc1ccc(F)cc1-c1cc(-c2ccccc2C(F)(F)F)n(-c2ccccc2)n1	–	Crl:CD(SD) rat, male	intravenous, 25 µg/kg, 14 days post-dose	pituitary weight	16.5 ± 1.1 mg
O=c1ccc2ccc3occc3c2o1	–	rat plasma	1000 ng/mL, 2 weeks, -70 °C, post-preparative stability	accuracy	95%
CC(=O)c1c(C)c2cnc(Nc3ccc(C4CCN(CCS(C)(=O)=O)CC4)cn3)nc2n(C2CCCC2)c1=O	–	HR+/HER2- advanced breast cancer patients	oral, dose not given, all grades	ALT increased	25.9%
CN1CCN(c2cccc3c2CCN(C(=O)/C=C/c2c(-n4cnnn4)ccc(Cl)c2F)[C@@H]3C(=O)Nc2ccc(C(=O)O)cc2)C(=O)C1	–	healthy human subjects	intravenous infusion, 25 mg/h, 2 h	deaths	0%
CC(C)CC(=O)OC[C@H]1O[C@@](C#N)(c2ccc3c(N)ncnn23)[C@H](O)[C@@H]1O	–	Dogs plasma	5 µM, 15 min	remaining compound	96.7 ± 1.11%
CO[C@H]1C[C@@H]2CC[C@@H](C)[C@@](O)(O2)C(=O)C(=O)N2CCCC[C@H]2C(=O)O[C@H]([C@H](C)C[C@@H]2CC[C@@H](OC(=O)NCCOCCOCCOCCOCCOCCOCCOCCOCCC(=O)N3CCc4cc(Cn5nc(-c6ccc7oc(N)nc7c6)c6c(N)ncnc65)ccc4C3)[C@H](OC)C2)C[C@@H](O)[C@H](C)/C=C(\C)[C@@H](O)[C@@H](OC)C(=O)[C@H](C)C[C@H](C)/C=C/C=C/C=C/1C	phase 1 dose escalation, item: fatigue	advanced solid tumour patients	intravenous, 6 mg weekly, any grade	dose-reducing adverse events	0%
CC1(C)[C@H](C(=O)OCc2cccc(Oc3ccccc3)c2)[C@@H]1C=C(Cl)Cl	item: CYP3A5	human, age 1 year, recombinant human CYP3A5	0.1 µM	enzyme contribution to clearance	0.13%
COc1ccc(-c2c(-c3ccc(C#N)c(F)c3)nc(N3CCC(N)CC3)n(C)c2=O)cc1F	item: wound infection	human patients	oral, 60 mg, dose expansion	serious TEAE incidence	0%
COc1cc2c(Oc3ccc4[nH]c(C)cc4c3F)ccnc2cc1OCC1(N)CC1	–	paediatric recurrent refractory sarcoma	concentration not given, whole group	grade 1 or 2 Myalgia	14.7%
C[C@@H]1NC(=O)[C@H](CCCCNC(=O)CO/N=C/C(=O)NCCCC[C@@H]2NC(=O)[C@@H](Cc3ccccc3)NC(=O)[C@H](CC(=O)O)NC(=O)CNC(=O)[C@H](CCCNC(=N)N)NC2=O)NC(=O)CNC(=O)[C@@H]2CCCN2C(=O)[C@H](CCCCNC(=O)CO/N=C/C(=O)NCCCC[C@@H]2NC(=O)[C@@H](Cc3ccccc3)NC(=O)[C@H](CC(=O)O)NC(=O)CNC(=O)[C@H](CCCNC(=N)N)NC2=O)NC(=O)[C@H](CCCCNC(=O)CN2CCCNCCNCCCNCC2)NC(=O)[C@H](CCCCNC(=O)CO/N=C/C(=O)NCCCC[C@@H]2NC(=O)[C@@H](Cc3ccccc3)NC(=O)[C@H](CC(=O)O)NC(=O)CNC(=O)[C@H](CCCNC(=N)N)NC2=O)NC(=O)CNC(=O)[C@@H]2CCCN2C(=O)[C@H](CCCCNC(=O)CO/N=C/C(=O)NCCCC[C@@H]2NC(=O)[C@@H](Cc3ccccc3)NC(=O)[C@H](CC(=O)O)NC(=O)CNC(=O)[C@H](CCCNC(=N)N)NC2=O)NC1=O [copper-64 labelled]	biodistribution after PET	mouse, U-87 MG tumour xenograft, kidney	intravenous, 24 h	tissue uptake	15.9 ± 3.48 %ID/g
O=C1Nc2cc3[nH]nc(-c4ccncc4)c3cc2CN1Cc1ccccc1	CTCAE v4.03	advanced solid tumour patients	intravenous, 4.8 mg/kg, schedules 1/2	patients with abdominal pain	0%
Clc1ccc(-c2ccccc2)cc1	–	Sprague-Dawley rats, female, serum	inhalation, 23 µg/rat, 2 h after exposure	phosphorus	10 ± 4 mg/dL
COc1ncccc1-c1cnn2ccc(N3CCN(C(=O)OC(C)C)CC3)nc12	–	rat, rotarod test, plasma	60 mg/kg, 180 min	drug concentration	2900 nM
O=C1O[C@H]2[C@@H]3OC(=O)c4cc(O)c(O)c(O)c4-c4c(O)c(O)c5oc(=O)c6c(c(O)c(O)c7oc(=O)c4c5c76)-c4c(cc(O)c(O)c4O)C(=O)OC[C@H]3OC(O)[C@@H]2OC(=O)c2cc(O)c(O)c(O)c2-c2c1cc(O)c(O)c2O (mixture of isomers)	subacute oral toxicity	BALB/c mice	oral, 1000 mg/kg/day, 28 days	liver weight	1.4 g
N[C@@H]1c2ccccc2OC12CCN(c1cnc3c(N4CCCc5ncccc54)n[nH]c3n1)CC2	–	advanced solid tumour patients	oral, 60 mg once daily	serious TEAE grade ≥3	20%
C[C@]1(CO)Cc2ncn(-c3ccc(C#N)c(Cl)c3)c2C(=O)O1	–	human, plasma	10 mg once daily, fasted	tmax at steady state	30 min
O=C(O)CCc1ccccc1	–	–	pH 7.4	logD	-0.49
COc1cccc(Oc2ccccc2NC(=O)CNC(=O)c2cccc3ccccc23)c1	–	esterase-deficient SCID mice, male	oral, 15 mg/kg/day, 14 days, toxicity study	serum cholesterol	94 mg/dL and 88 mg/dL and 97 mg/dL
C=CC(=O)N1CC[C@H](n2nc(C#Cc3cc(OC)cc(OC)c3)c3c(N)ncnc32)C1	–	human patients	oral, dose not given, QD regimen, adverse drug reaction, added: sevelamer hydrochloride	any adverse drug reaction, any grade	100%
CCc1ccc(CC/C=C/c2ccc3c(c2)C(=O)CC3)cc1	–	Sprague-Dawley rat, female	oral, 30 mg/kg/day, 14 days	GGT serum activity	1 U/L
CCOC(=O)C(CC)(CCCSC)NC(=O)c1ccc(C2CC2)c(Cc2ccc(F)cc2)n1 (centres unmarked)	–	aqueous buffer with DMSO	–	kinetic solubility	2.9 µg/mL (≈ 6.14 µM)
CN1CCN(S(=O)(=O)c2cc([N+](=O)[O-])ccc2N(CCOS(C)(=O)=O)CCOS(C)(=O)=O)CC1	–	NSG mice, brain	intraperitoneal, 5 mg/kg, 0.5 h	concentration	not detected
C[C@@H](NC(=O)N1C(=O)[C@H](Cc2ccnc(N)c2)[C@H]1C(=O)O)C1CCCCC1	–	healthy adult Chinese volunteers	continuous intravenous infusion, 0.6 mg/kg/h, 5-day infusion, CTCAE 5.0 grading	incidence of albuminuria	0%
NCCCC[C@@H]1NC(=O)[C@@H](Cc2c[nH]c3ccccc23)NC(=O)[C@H](c2ccccc2)NC(=O)[C@@H]2C[C@@H](OC(=O)NCCN)CN2C(=O)[C@H](Cc2ccccc2)NC(=O)[C@H](Cc2ccc(OCc3ccccc3)cc2)NC1=O	–	healthy volunteers, male	1950 µg twice daily, 1.0 h, post hoc	placebo-corrected QTcF change	10.3 ms
C=CCNc1c(O)cc2c(O)c1C[C@@H](C)C[C@H](OC)[C@H](O)[C@@H](C)/C=C(\C)[C@H](OC(N)=O)[C@@H](OC)/C=C\C=C(/C)C(=O)N2	–	unresectable or metastatic STS, GIST, other	intravenous, 300 mg/m^2	patients with sinus bradycardia	33%

Some of these lines once more:
Structure (SMILES)	assay	system	conditions	endpoint	result
CC(=O)c1c(C)c2cnc(Nc3ccc(C4CCN(CCS(C)(=O)=O)CC4)cn3)nc2n(C2CCCC2)c1=O	–	HR+/HER2- advanced breast cancer patients	oral, dose not given, all grades	ALT increased	25.9%
CN1CCN(c2cccc3c2CCN(C(=O)/C=C/c2c(-n4cnnn4)ccc(Cl)c2F)[C@@H]3C(=O)Nc2ccc(C(=O)O)cc2)C(=O)C1	–	healthy human subjects	intravenous infusion, 25 mg/h, 2 h	deaths	0%
CC(C)CC(=O)OC[C@H]1O[C@@](C#N)(c2ccc3c(N)ncnn23)[C@H](O)[C@@H]1O	–	Dogs plasma	5 µM, 15 min	remaining compound	96.7 ± 1.11%
